Experimental data from different studies.
Each numbered part is a random draw from the data of one study; scales do not carry over between parts.
Chain of UniProt Q9UK32 (whole entry, looked up): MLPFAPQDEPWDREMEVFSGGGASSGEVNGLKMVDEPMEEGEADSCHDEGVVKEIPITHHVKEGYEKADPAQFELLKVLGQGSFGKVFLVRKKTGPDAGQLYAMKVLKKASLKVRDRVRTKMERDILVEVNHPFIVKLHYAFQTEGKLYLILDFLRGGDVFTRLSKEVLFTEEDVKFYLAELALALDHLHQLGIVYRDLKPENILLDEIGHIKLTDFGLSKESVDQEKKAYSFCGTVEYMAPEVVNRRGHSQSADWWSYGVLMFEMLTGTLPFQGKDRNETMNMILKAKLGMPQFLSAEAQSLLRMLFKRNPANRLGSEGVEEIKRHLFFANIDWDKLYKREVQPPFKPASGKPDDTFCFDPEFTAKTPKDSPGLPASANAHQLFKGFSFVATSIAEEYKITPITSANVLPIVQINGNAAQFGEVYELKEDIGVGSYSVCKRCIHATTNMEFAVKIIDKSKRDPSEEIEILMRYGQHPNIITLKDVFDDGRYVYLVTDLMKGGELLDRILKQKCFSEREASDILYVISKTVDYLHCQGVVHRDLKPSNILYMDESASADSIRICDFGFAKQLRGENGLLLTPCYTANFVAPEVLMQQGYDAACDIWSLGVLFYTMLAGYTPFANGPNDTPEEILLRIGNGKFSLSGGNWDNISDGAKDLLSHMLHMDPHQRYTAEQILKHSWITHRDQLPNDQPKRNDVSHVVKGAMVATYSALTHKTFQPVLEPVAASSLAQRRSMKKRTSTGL
Chain of UniProt Q8TBX8 (whole entry, looked up): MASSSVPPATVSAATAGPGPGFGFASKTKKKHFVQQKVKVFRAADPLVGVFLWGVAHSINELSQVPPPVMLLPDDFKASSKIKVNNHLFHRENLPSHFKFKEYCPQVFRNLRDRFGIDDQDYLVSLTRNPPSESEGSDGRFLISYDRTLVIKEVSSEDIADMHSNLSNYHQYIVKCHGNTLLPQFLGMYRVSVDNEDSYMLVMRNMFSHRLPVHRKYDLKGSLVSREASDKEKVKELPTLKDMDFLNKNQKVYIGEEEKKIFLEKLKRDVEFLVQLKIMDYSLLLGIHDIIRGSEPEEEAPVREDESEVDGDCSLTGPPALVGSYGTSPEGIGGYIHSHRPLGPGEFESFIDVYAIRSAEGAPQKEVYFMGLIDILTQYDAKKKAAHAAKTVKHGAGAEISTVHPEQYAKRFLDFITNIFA
Chain of UniProt O96017 (whole entry, looked up): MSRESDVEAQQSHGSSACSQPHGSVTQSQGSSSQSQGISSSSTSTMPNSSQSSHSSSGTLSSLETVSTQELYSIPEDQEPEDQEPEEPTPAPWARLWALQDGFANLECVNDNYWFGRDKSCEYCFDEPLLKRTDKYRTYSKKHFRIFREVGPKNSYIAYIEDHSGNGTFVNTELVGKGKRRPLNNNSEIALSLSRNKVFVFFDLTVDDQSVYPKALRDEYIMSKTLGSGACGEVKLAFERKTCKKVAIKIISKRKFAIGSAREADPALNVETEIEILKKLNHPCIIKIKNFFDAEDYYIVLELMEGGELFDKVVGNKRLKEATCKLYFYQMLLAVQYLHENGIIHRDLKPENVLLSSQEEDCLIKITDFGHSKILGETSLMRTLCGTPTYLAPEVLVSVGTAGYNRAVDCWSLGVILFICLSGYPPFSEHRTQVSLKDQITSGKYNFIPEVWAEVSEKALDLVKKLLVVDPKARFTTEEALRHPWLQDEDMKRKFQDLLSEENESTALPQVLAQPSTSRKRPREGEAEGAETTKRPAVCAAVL
Chain of UniProt P37023 (whole entry, looked up): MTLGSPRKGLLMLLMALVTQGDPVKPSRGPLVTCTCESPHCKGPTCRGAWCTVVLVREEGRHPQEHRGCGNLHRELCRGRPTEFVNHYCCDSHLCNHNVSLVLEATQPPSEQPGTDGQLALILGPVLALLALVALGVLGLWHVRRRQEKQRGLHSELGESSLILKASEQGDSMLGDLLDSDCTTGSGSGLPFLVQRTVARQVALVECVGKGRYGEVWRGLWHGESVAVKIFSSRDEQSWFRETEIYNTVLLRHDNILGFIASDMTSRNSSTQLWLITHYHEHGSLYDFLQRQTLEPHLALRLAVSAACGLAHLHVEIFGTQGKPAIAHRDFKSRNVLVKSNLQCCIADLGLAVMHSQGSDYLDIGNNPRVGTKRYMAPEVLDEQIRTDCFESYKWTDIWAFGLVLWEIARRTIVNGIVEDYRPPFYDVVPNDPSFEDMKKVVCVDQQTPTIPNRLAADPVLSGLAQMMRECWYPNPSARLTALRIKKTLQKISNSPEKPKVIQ
Chain of UniProt Q96NX5 (whole entry, looked up): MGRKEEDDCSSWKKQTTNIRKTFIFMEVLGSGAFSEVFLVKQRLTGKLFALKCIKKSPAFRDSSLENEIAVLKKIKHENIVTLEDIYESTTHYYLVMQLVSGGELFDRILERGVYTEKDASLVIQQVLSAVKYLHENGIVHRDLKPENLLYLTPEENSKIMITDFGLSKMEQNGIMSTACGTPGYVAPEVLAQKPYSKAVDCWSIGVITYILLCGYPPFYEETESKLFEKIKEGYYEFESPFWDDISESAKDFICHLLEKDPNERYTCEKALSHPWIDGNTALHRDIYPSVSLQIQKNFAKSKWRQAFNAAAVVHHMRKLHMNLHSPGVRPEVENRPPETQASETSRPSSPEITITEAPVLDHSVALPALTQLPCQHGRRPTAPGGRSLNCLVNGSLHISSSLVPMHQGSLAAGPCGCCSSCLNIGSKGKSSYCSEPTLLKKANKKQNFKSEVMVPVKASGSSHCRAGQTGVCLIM

Study 1
Target: SRSF protein kinase 3 (SRPK3, Homo sapiens, UniProt Q9UPE1)
Chain of UniProt Q9UPE1 (whole entry, looked up): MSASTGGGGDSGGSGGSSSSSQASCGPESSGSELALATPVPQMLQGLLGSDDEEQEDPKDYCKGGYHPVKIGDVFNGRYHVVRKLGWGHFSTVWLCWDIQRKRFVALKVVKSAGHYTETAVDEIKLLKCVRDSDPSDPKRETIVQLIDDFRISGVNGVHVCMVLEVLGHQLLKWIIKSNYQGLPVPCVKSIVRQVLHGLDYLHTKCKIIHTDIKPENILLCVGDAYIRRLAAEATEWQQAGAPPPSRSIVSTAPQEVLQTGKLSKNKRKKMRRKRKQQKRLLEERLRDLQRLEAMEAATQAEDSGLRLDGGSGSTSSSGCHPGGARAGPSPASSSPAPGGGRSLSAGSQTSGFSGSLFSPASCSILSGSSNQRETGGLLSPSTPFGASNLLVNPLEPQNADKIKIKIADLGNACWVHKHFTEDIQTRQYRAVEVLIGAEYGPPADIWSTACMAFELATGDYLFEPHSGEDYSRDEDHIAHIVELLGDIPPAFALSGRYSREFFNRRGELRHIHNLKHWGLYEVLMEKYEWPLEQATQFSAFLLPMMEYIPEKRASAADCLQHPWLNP
Observed: enzyme activity
Action: inhibitor
Tested at: 0.5 µM
Baseline: control
SMILES | remaining activity
O=C(Nc1cccc(Nc2cc(Nc3cccc(C(F)(F)F)c3)ncn2)c1)C1CC1 | 103%
CC(C)[C@H](CO)Nc1nc(Nc2cc(N)cc(Cl)c2)c2ncn(C(C)C)c2n1 | 37.7%
OCC(O)CCON=C1C(c2c(O)[nH]c3ccccc23)=Nc2ccccc21 (stereo not drawn) | 59.5%
COc1ccc(CNC(=O)Nc2ncc([N+](=O)[O-])s2)cc1 | 100%
Cc1cccc(-c2[nH]c(C(C)(C)C)nc2-c2ccc3c(c2)OCO3)n1 | 95.1%
Nc1ccc2ncnc(NCCc3ccc(Oc4ccccc4)cc3)c2c1 | 96.6%
O=C1NC(=O)C(c2cn(CCCO)c3ncccc23)=C1c1cnccn1 | 91.2%
CO[C@H]1C[C@@H]2CC[C@@H](C)[C@@](O)(O2)C(=O)C(=O)N2CCCC[C@H]2C(=O)O[C@H]([C@H](C)C[C@@H]2CC[C@@H](O)[C@H](OC)C2)CC(=O)[C@H](C)/C=C(\C)[C@@H](O)[C@@H](OC)C(=O)[C@H](C)C[C@H](C)/C=C/C=C/C=C/1C | 97.2%
C#Cc1cccc(Nc2ncnc3cc(OCCOC)c(OCCOC)cc23)c1 | 101%
COc1ccc(OC)c2c(=S)c3ccccc3[nH]c12 | 96.8%
N#CCCc1ccc2c(c1)-c1[nH]c3ccc([N+](=O)[O-])cc3c1CC(=O)N2 | 94.6%
N#CC(C#N)=C(N)/C(C#N)=C/c1ccc(O)cc1 | 96.4%
O=C(O)c1ccc2c3c1cccc3c(=O)n1c3ccccc3nc21 | 82.8%
COc1cc2ncnc(Nc3ccc(Oc4ccccc4)cc3)c2cc1OC | 94.8%
Cc1nc(-c2ccccc2)c(-c2ccncc2)o1 | 103%
Cn1c2ccccc2c2c3c(c4c5ccccc5n(CCC#N)c4c21)CNC3=O | 92.8%
NCCNc1ncc(C(N)=O)c(Nc2cccc(C(F)(F)F)c2)n1 | 87.1%

Study 2
SMILES: CNC(=O)Nc1ccc2c(c1)[C@@]1(CC2)OC(=O)N(CC(=O)N(Cc2ccc(F)cc2)[C@@H](C)C(F)(F)F)C1=O
Technique: competition with immobilised ligand
Tested at: 1 µM
target | observed | remaining binding
CHEK2 (Homo sapiens, UniProt O96017) | cell-free assay | 100%
WNK1 (Homo sapiens, UniProt Q9H4A3) | cell-free assay | 79%
Ribosomal protein S6 kinase alpha-6, N-terminal kinase domain (RPS6KA6, Homo sapiens, UniProt Q9UK32) | cell-free assay | 82%
CAMK1G (Homo sapiens, UniProt Q96NX5) | cell-free assay | 100%
ACVRL1 (Homo sapiens, UniProt P37023) | binding | 78%
PIP4K2C (Homo sapiens, UniProt Q8TBX8) | cell-free assay | 100%

Study 3
Molecule: MNQELLSVGSKRRRTG
Molecule type: peptide
Direction: direction not given
tested on | assay | test system | setting | enrichment score
Saccharomyces cerevisiae | binding, competitive growth deep sequencing | cyclin E1-Cln2 fusion strain | peptide tiling library | 2.37
Saccharomyces cerevisiae | cell growth, competitive growth deep sequencing |  | peptide tiling library, together with: cyclin E2-Cln2 fusion | 2.39
Saccharomyces cerevisiae | cell growth, competitive growth deep sequencing |  | peptide tiling library, together with: cyclin F-Cln2 fusion | 2.4
Saccharomyces cerevisiae | pheromone growth arrest, yeast competitive growth sequencing | no Cln2 overexpression | peptide tiling library | 1.44
human cyclin A2 | competitive growth deep sequencing | Saccharomyces cerevisiae, cyclin A2-Cln2 fusion strain | peptide tiling library | 1.34
Cln2 (Saccharomyces cerevisiae) | peptide binding, competitive growth sequencing | Saccharomyces cerevisiae, unfused Cln2 strain | peptide tiling library | 1.06
Saccharomyces cerevisiae | binding, yeast competitive growth sequencing | cyclin D1-Cln2 strain, peptide tiling library | pooled screen | 1.53
 | peptide binding | yeast competitive growth | together with: B1-Cln2 chimera | 2.24

Study 4
Target: Histone acetyltransferase KAT6A, winged helix 2, GST fusion (KAT6A, Homo sapiens, UniProt Q92794, residues 85-181)
Technique: protein binding microarray
Molecule type: double-stranded DNA, one strand shown
Matrix: in vitro
Tested at: not given
Setting: 8-mer, flanks averaged, mean of 2 arrays, mostly near background
Baseline: not given
Direction: higher = stronger binding
Construct (chain): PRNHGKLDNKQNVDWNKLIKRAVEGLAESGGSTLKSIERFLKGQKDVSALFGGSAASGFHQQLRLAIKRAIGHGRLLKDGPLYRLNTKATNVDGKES
Strand | E-score
GACTTGAC | -0.163
GAACGGAA | -0.0548
CATCCATG | -0.0789
ACGCGTTA | -0.12
AAGTAGCA | 0.125
CAGGTCCC | 0.179
CTATGTTA | -0.131
CCGTAAAG | -0.0616
